Results of several laboratories.
Parts stem from different laboratories: compare values within a part only. Positions count from the first letter of the parent shown.
Chain of UniProt Q9UBS0 (whole entry, looked up): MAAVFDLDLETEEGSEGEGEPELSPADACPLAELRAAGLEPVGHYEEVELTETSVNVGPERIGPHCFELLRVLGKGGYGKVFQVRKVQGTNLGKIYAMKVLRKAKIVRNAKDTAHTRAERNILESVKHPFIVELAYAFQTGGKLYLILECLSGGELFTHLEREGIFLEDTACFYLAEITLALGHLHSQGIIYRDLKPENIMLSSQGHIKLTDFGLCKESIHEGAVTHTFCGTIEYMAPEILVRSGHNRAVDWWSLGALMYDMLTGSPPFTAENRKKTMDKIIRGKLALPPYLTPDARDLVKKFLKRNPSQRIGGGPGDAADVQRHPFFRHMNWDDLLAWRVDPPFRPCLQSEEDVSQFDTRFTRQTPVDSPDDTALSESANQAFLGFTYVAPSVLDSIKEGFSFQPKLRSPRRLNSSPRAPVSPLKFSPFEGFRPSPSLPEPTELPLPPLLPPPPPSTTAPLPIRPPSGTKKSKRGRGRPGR
Chain of UniProt Q00535 (whole entry, looked up): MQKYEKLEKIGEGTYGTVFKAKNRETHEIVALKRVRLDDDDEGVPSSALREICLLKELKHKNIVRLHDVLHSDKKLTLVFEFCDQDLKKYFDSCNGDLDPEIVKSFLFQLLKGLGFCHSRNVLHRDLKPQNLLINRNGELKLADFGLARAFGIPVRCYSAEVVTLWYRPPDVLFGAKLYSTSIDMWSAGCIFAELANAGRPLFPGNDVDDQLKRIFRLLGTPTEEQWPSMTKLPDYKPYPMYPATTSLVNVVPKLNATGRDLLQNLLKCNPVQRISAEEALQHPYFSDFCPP
Chain of UniProt O96013 (whole entry, looked up): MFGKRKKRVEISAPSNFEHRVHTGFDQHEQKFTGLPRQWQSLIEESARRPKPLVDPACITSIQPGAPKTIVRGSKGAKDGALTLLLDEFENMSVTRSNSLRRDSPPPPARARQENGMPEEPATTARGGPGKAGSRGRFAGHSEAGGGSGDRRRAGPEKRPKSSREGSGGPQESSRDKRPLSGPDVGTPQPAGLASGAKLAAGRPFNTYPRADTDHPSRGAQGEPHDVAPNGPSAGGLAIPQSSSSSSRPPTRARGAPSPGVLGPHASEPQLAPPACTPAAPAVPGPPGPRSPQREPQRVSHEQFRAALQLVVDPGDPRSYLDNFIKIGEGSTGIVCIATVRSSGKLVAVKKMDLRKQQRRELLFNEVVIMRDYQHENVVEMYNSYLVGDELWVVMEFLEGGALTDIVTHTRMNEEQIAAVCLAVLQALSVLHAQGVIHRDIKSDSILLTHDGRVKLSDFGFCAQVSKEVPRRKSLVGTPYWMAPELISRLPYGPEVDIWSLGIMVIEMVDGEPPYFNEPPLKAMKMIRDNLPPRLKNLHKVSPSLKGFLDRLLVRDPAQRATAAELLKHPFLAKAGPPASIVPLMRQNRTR

Sample 1 — read-out: enzyme activity; action: inhibitor; tested at: 0.5 µM; baseline: control
SMILES: COC[C@H]1OC(=O)c2coc3c2[C@@]1(C)C1=C(C3=O)[C@@H]2CCC(=O)[C@@]2(C)C[C@H]1OC(C)=O
The remaining activity was 91% (Serine/threonine-protein kinase PAK 4 (PAK4, Homo sapiens, UniProt O96013)).
The remaining activity was 88.7% (Cyclin-dependent kinase 5, with p35 (CDK5, Homo sapiens, UniProt Q00535)).
The remaining activity was 100% (Ribosomal protein S6 kinase beta-2 (RPS6KB2, Homo sapiens, UniProt Q9UBS0)).

Sample 2 — target: CCNB1, cyclin fold, Cln2 fusion (human); technique: yeast growth competition, sequencing; medium: yeast; setting: strong parent motif; baseline: not given; reading: higher = stronger binding
Starting sequence: viral docking peptide; TSVRRALFTGGSD; partner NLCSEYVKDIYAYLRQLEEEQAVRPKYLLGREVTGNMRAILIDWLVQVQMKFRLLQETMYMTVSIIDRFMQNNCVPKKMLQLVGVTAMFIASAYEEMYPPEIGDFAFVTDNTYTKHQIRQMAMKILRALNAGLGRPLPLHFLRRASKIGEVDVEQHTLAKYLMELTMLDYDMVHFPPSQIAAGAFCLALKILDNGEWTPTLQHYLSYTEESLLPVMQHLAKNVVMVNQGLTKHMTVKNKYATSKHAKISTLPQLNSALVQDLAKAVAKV
For `TSVMRALFTGGSD [R4M]`, “normalised enrichment score” read 1.12.
`TQVRRALFTGGSD [S2Q]`: “normalised enrichment score” 1.82.
Under “normalised enrichment score”, `TSVRRALFTMGSD [G10M]` is recorded as 1.25.
Under “normalised enrichment score”, `TSVRRAVFTGGSD [L7V]` is recorded as 0.635.
`TKVRRALFTGGSD [S2K]`: “normalised enrichment score” 1.35.
Under “normalised enrichment score”, `TSVQRALFTGGSD [R4Q]` is recorded as 1.29.
`TSVRPALFTGGSD [R5P]` — result for “normalised enrichment score”: -0.56.
`TSVRGALFTGGSD [R5G]` — result for “normalised enrichment score”: 0.26.

Sample 3 — read-out: peptide-MHC binding; molecule type: peptide; tested at: concentration not given
Target: HLA class I histocompatibility antigen, A alpha chain, allele A*25:01 (Homo sapiens, UniProt P04439)
Under binding, `STTTCEAGV` is recorded as “inactive”.
`ETKKRMDYF` — result for binding: “active”.
`KSKPRIHGY` — result for binding: “inactive”.
`APFARLLNL`: binding “inactive”.
For `SVFELSNFA`, binding read “inactive”.
For `TSACGIFLK`, binding read “inactive”.
For `FKYDSTKPL`, binding read “inactive”.
`MVFGRFSFA`: binding “inactive”.

Single results of other studies — cell line: HEK-293T; read-out: pseudovirus infection; technique: FDA-approved drug library counter-screen; organism: VSV pseudotyped with VSV-G; tested at: 10 µM; time: 16 h; baseline: vehicle-treated
The GFP-positive cells of `Clc1ccc(C(Cn2ccnc2)OCc2csc3c(Cl)cccc23)c(Cl)c1` (stereo not drawn) is reported as 121%.
For `CC(=O)S[C@@H]1CC2=CC(=O)CC[C@]2(C)[C@H]2CC[C@@]3(C)[C@@H](CC[C@@]34CCC(=O)O4)[C@H]12`, the GFP-positive cells was 98%.

Some of these lines once more (sample 1):
The remaining activity was 91% (Serine/threonine-protein kinase PAK 4 (PAK4, Homo sapiens, UniProt O96013)).
The remaining activity was 88.7% (Cyclin-dependent kinase 5, with p35 (CDK5, Homo sapiens, UniProt Q00535)).
The remaining activity was 100% (Ribosomal protein S6 kinase beta-2 (RPS6KB2, Homo sapiens, UniProt Q9UBS0)).
